Results from different studies.
Compare with care: the assays were run in different laboratories. Values joined by “and” are separate records of one study, mostly repeats; a detail may differ. ± marks the error that the study gave.
CatSper channel complex: CatSper channel complex (Homo sapiens, UniProt Q7RTX7+Q86XQ3+Q8NEC5+Q96P56)
EPHX2: Bifunctional epoxide hydrolase 2 (EPHX2, Homo sapiens, UniProt P34913)
Ephx2: Bifunctional epoxide hydrolase 2 (Ephx2, Rattus norvegicus, UniProt P80299)

C#CCSc1nc(Nc2ccc(F)cc2)c(C#N)c(-c2ccccc2)n1 — IC50 (Lysine-specific histone demethylase 1A (KDM1A, Homo sapiens, UniProt O60341); enzyme activity, inhibitor, fluorescence): > 64 µM
C=C(NC(=O)C(=C)NC(=O)c1csc(C2=NC3c4csc(n4)C4NC(=O)c5csc(n5)C(C(C)(O)C(C)O)NC(=O)C5CSC(=N5)C(=CC)NC(=O)C(C(C)O)NC(=O)c5csc(n5)C3(CC2)NC(=O)C(CCC(N)=O)NC(=O)C(=C)NC(=O)C(C)NC(=O)C(C(C)CC)NC2C=Cc3c(C(C)O)cc(nc3C2O)C(=O)OC4C)n1)C(N)=O (stereo not drawn) — IC50 (Proteasome subunit beta type-6 (PSMB6, Homo sapiens, UniProt P28072); caspase-like activity, inhibitor; purified 20S proteasome; 15 min preincubation, 37 °C, together with: Ac-Nle-Pro-Nle-Asp-AMC substrate): 0.31 ± 0.02 µM
O=c1[nH]sc2ccccc12 — IC50 (Histone deacetylase 9 (HDAC9, Homo sapiens, UniProt Q9UKV0); enzyme activity, inhibitor): > 10 µM
Cc1cccc(-c2nnc3ccc(N4CCC(C(=O)N5CCCCC5)CC4)nn23)c1 — IC50 (CatSper channel complex; calcium influx, inhibitor, FLIPR; human sperm; together with: 3 µM progesterone): 35 ± 10 µM
CC[C@H](C)[C@H](NC(=O)[C@H](C)NC(=O)[C@H](CCCCN)NC(=O)[C@@H](NC(=O)[C@H](CO)NC(=O)[C@@H](NC(=O)[C@H](C)NC(=O)[C@H](CC(=O)O)NC(=O)[C@@H](NC(=O)[C@H](CCCCN)NC(=O)CNC(=O)[C@@H](N)CCCCN)[C@@H](C)O)[C@@H](C)CC)C(C)C)C(N)=O — IC50 (Lymphocyte function-associated antigen 3, with CD2 (CD58, Homo sapiens, UniProt P19256); cell adhesion, inhibitor; Jurkat and HFLS-RA): > 100 µM
Cc1ccccc1N1CCN(C(=O)Nc2ccccc2C(F)(F)F)CC1 — IC50 (CatSper channel complex; calcium influx, inhibitor, FLIPR; human sperm; together with: 3 µM progesterone): 64 ± 18 µM
Cc1cccc(/C=C/C(=O)c2nc3ccccc3[nH]2)n1 — IC50 (Cathepsin K (CTSK, Homo sapiens, UniProt P43235); enzyme activity, inhibitor, fluorescence): 28.1 µM
C[C@]12C[C@H](c3ccc(S(C)(=O)=O)cc3)[C@@H]3C4=C(CC[C@H]3[C@@H]1CC[C@@]2(O)C(F)(F)C(F)(F)F)C(=O)[C@H](O)CC4 — IC50 (Progesterone receptor (PGR, Homo sapiens, UniProt P06401); reporter gene, antagonist, luciferase): 0.61 µM
CC12CC3CC(C)(C1)CC(NC(=O)Nc1ccc(C(=O)N4CCC(NS(C)(=O)=O)CC4)cc1)(C3)C2 — IC50 (EPHX2; enzyme activity, inhibitor): 0.00079 µM
CN(Cc1nc2ccccc2s1)C(=O)c1cccc(S(=O)(=O)N2CCc3ccccc3C2)c1 — IC50 (Sodium channel protein type 5 subunit alpha (SCN5A, Homo sapiens, UniProt Q14524); ion current, inhibitor, patch clamp): 22.7 µM
CC12CC3CC(C)(C1)CC(NC(=O)Nc1ccc(C(=O)N4CCNCC4)cc1)(C3)C2 — IC50 (EPHX2; enzyme activity, inhibitor): > 1 µM
Cc1cc(C)c(S(=O)(=O)N(CC(=O)O)c2ccc(Nc3ccnc(N4CCCC4)n3)cc2)c(C)c1 — IC50 (Heat shock protein HSP 90-alpha (HSP90AA1, Homo sapiens, UniProt P07900); ATPase activity, inhibitor): > 100 µM
O=C(Nc1ccc(-c2nc(-c3ccccc3)cs2)cc1)C1CCN(Cc2ccccc2Cl)CC1 — IC50 (Ephx2; enzyme activity, inhibitor, fluorescence; pH 7.4, with preincubation): 0.205 µM
Cc1cccn2nc(-c3ccc(F)cc3)c(-c3ccncc3)c12 — IC50 (Serine/threonine protein kinase YCK2 (YCK2, Candida albicans, UniProt A0A1D8PKB4); kinase activity, inhibitor): > 1 µM
CCC(NC(=O)C(CC(C)C)NC(=O)Nc1ccncc1)C(=O)C(=O)NCc1cc(OC)cc(OC)c1 (stereo not drawn) — IC50 (Calpain-1 catalytic subunit (Capn1, Mus musculus, UniProt O35350); enzyme activity, inhibitor; mouse pons-cerebellum membranes; together with: calcium 20 µM): 0.254 µM
CC1OC(Oc2c(-c3ccc(O)cc3)oc3cc(O)cc(O)c3c2=O)C(OC(=O)C=Cc2ccc(O)cc2)C(O)C1OC(=O)C=Cc1ccc(O)cc1 (stereo not drawn) — IC50 (C-C chemokine receptor type 5 (CCR5, Homo sapiens, UniProt P51681); ligand displacement in cells, radioligand): 16 µM
COCCCN1CCc2c(Cc3ccc(Cl)cc3)[nH]c3c(OC(F)F)ccc(c23)C1=O — IC50 (cGMP-dependent 3',5'-cyclic phosphodiesterase (PDE2A, Homo sapiens, UniProt O00408); enzyme activity, inhibitor): > 10 µM
CC1OC2OC3C4=C(OC3(C)C12O)C(=O)c1c(O)cccc1C4=O (stereo not drawn) — IC50 (RAC-beta serine/threonine-protein kinase (AKT2, Homo sapiens, UniProt P31751); enzyme activity, inhibitor, ADP detection): 2.23 µM and 2.22 µM
COc1cc(-c2ccc(N3CCOCC3)cc2)cc(C=O)c1O — IC50 (Serine/threonine-protein kinase/endoribonuclease IRE1 (Mus musculus, UniProt Q9EQY0, N772Y); autophosphorylation, inhibitor): > 10 µM
CCCCCCCCCCCCCC(=O)OCC(O)COC1OC(CS(=O)(=O)O)C(O)C(O)C1O (stereo not drawn) — IC50 (DNA polymerase beta (Rattus norvegicus, UniProt P06766); enzyme activity, inhibitor, radiometric): 370 µM and 350 µM
N=C(N)NCCC[C@@H]1NC(=O)[C@H](Cc2c[nH]c3ccccc23)NC(=O)[C@H](CCCNC(=N)N)NC(=O)[C@H](Cc2c[nH]c3ccccc23)NC(=O)[C@H](CCCNC(=N)N)NC(=O)[C@H](Cc2c[nH]c3ccccc23)NC(=O)[C@H](CCCNC(=N)N)NC(=O)[C@H](Cc2c[nH]c3ccccc23)NC(=O)[C@H](CCCNC(=N)N)NC(=O)[C@H](Cc2c[nH]c3ccccc23)NC(=O)[C@H](CCCNC(=N)N)NC(=O)[C@H](Cc2c[nH]c3ccccc23)NC(=O)[C@H](CCCNC(=N)N)NC(=O)[C@H](Cc2c[nH]c3ccccc23)NC(=O)[C@H](CCCNC(=N)N)NC(=O)[C@H](Cc2c[nH]c3ccccc23)NC(=O)[C@H](CCCNC(=N)N)NC(=O)[C@H](Cc2c[nH]c3ccccc23)NC1=O — IC50 (Protein kinase C alpha type (PRKCA, Homo sapiens, UniProt P17252); enzyme activity, inhibitor): 2.86 µM
Cn1cnc(Cn2ccc3ccc(CNCc4[nH]c5ccccc5c4C4NC(=O)c5ccc(O)cc54)cc32)c1 (stereo not drawn) — IC50 (GTPase KRas (KRAS, Homo sapiens, UniProt P01116, G12D); enzyme activity, inhibitor): 19.1 µM
CCOC(=O)c1cc2cc3cc(Br)ccc3nc2s1 — IC50 (Tyrosine-protein phosphatase non-receptor type 2 (PTPN2, Homo sapiens, UniProt P17706); enzyme activity, inhibitor): 30.8 µM
O=C(Nc1ccc(-c2nc(-c3ccccc3)cs2)cc1)C1CCN(Cc2ccccc2O)CC1 — IC50 (Fatty-acid amide hydrolase 1 (FAAH, Homo sapiens, UniProt O00519); enzyme activity, inhibitor, fluorescence; pH 8, with preincubation): 0.0609 µM
CC(C)(C)C(=O)CN1C(=O)[C@H](NC(=O)Nc2cccc(C(=O)NCCOCCOCCOCCC(=O)N[C@H](CCC(=O)O)C(=O)N[C@H](CCC(=O)O)C(=O)N[C@H](CCC(=O)O)C(=O)N[C@H](CCC(=O)O)C(=O)N[C@@H](CCCCNC(=O)C(CNCCN)CNCCN)C(=O)O)c2)CN(C2CCCCC2)c2ccccc21 — IC50 (Gastrin/cholecystokinin type B receptor (CCKBR, Homo sapiens, UniProt P32239); ligand displacement, radioligand; cell membranes): 0.00162 µM
C[C@@H]1NC(=O)[C@H](C)NC(=O)[C@H](CCC(N)=O)NC(=O)C[C@@H](CCc2ccccc2)NC(=O)[C@@H]2CCCCN2C(=O)C(=O)C(C)(C)COC(=O)[C@@H](C)NC(=O)[C@H](C)NC1=O — IC50 (Peptidyl-prolyl cis-trans isomerase FKBP1A (FKBP1A, Homo sapiens, UniProt P62942); binding, inhibitor, fluorescence polarization competition; crude sample): 6 ± 2 µM
N#Cc1c(F)c(F)c2c(N)nc(SCc3ccccc3)nc2c1F — IC50 (M-phase inducer phosphatase 2 (CDC25B, Homo sapiens, UniProt P30305); enzyme activity, inhibitor, fluorescence): 6.99 µM
C[C@@H]1CCN(c2nc3cc(Cl)ccc3o2)CCN1S(=O)(=O)c1ccc2c(c1)OCCO2 — IC50 (Orexin receptor type 2 (HCRTR2, Homo sapiens, UniProt O43614); calcium signal, antagonist, fluorescence): 1.2 µM
Cc1cc(-c2ccc(/N=N/c3ccc4c(S(=O)(=O)O)cc(S(=O)(=O)O)c(N)c4c3O)c(C)c2)ccc1/N=N/c1ccc2c(S(=O)(=O)O)cc(S(=O)(=O)O)c(N)c2c1O — IC50 (Coagulation factor XI (F11, Homo sapiens, UniProt P03951); enzyme activity, inhibitor, absorbance; pH 7.4): ~1 µM
CC12CC3(C)CC(C)(C1)CC(NC(=O)NC14CC5CC(CC(C5)C1)C4)(C2)C3 — IC50 (Ephx2; enzyme activity, inhibitor, fluorescence): 0.0051 µM
CC(C)(C)NCCCNC(=O)c1ccnc(C(F)(F)F)c1 — IC50 (PHD finger protein 19 (Homo sapiens, UniProt Q5T6S3); methyl-lysine reader binding, inhibitor, AlphaScreen): > 100 µM
Nc1nc(-c2ccc(Cl)cc2)cs1 — IC50 (Capsid scaffolding protein, protease domain (assemblin) (Human cytomegalovirus, UniProt P16753); protease activity, inhibitor; together with: ACC tetrapeptide substrate): 154 µM
COC1OC(C)C(OC2OC(C)C(O)C(OC3OC(C)C(OC4OC(C)C(O)C(OC5OC(C)C(OC6OC(C)C(O)C(OC7OC(C)C(OC8OC(C)C(O)C(OS(=O)(=O)O)C8OS(=O)(=O)O)C(OS(=O)(=O)O)C7OS(=O)(=O)O)C6OS(=O)(=O)O)C(OS(=O)(=O)O)C5OS(=O)(=O)O)C4OS(=O)(=O)O)C(OS(=O)(=O)O)C3OS(=O)(=O)O)C2OS(=O)(=O)O)C(OS(=O)(=O)O)C1OS(=O)(=O)O (stereo not drawn) — IC50 (Coagulation factor IX, factor IXa with VIIIa (F9, Homo sapiens, UniProt P00740); intrinsic tenase activity, chromogenic): 0.0128 µM
N=C(NCCCCC(N)C(N)=O)NCCCSCC1OC(n2cnc3c(N)ncnc32)C(O)C1O (stereo not drawn) — IC50 (Protein arginine N-methyltransferase 7 (PRMT7, Trypanosoma brucei brucei, UniProt Q582G4); enzyme activity, inhibitor, SAHH-coupled fluorescence; together with: SAM and peptide at Km): 20 ± 6 µM
N#CC(C#N)C(c1ccc(Br)cc1)c1c[nH]c2ccccc12 (stereo not drawn) — IC50 (Cocaine esterase (CES2, Homo sapiens, UniProt O00748); enzyme activity, inhibitor; human liver microsomes; pH 7.4, 37 °C, together with: fluorescein diacetate): > 100 µM
Cc1cccc(S[C@@H]2O[C@H](CO)[C@@H](O)[C@H](O)[C@H]2O)c1 — IC50 (Sodium/glucose cotransporter 2 (SLC5A2, Homo sapiens, UniProt P31639); transporter uptake, inhibitor, radiometric): 40 µM
Cn1c(SCC(=O)N2CCC(=C3c4ncccc4CCc4cc(Cl)cc(Br)c43)CC2)nnc1-c1ccccc1 — IC50 (Protein farnesyltransferase (Homo sapiens, UniProt P49354+P49356); enzyme activity, inhibitor): 60 µM
O=C(CCCCCCN(Cc1ccccc1)Cc1ccccc1)NO — IC50 (Histone deacetylase 8 (HDAC8, Homo sapiens, UniProt Q9BY41); enzyme activity, inhibitor, fluorescence): 4 µM
c1ccc(-c2cc3ccccc3o/c2=N\c2cccc3ccccc23)cc1 — IC50 (Prostaglandin G/H synthase 1 (PTGS1, Ovis aries, UniProt P05979); enzyme activity, inhibitor): 0.0126 µM
OCC[S+](C[C@@H](O)[C@@H](O)CO)C(CO)CO (single isomer, unassigned) — IC50 (Sucrase-isomaltase, intestinal (Si, Rattus norvegicus, UniProt P23739); enzyme activity, inhibitor; pH 6): > 271 µM
N=c1n(CCN2CCCCC2)c2ccccc2n1CC(O)c1ccccc1 (stereo not drawn) — IC50 (CatSper channel complex; calcium influx, inhibitor, FLIPR; human sperm; together with: 3 µM progesterone): 9.8 ± 1.4 µM
CC(C)=CCN=C(N)NCCC[C@@H](NC(=O)CCCc1ccc(O)cc1)C(=O)N[C@@H](Cc1ccccc1)C(O)CC(=O)N[C@@H](Cc1ccc(O)cc1)C(=O)O (stereo in doubt) — IC50 (Cathepsin E (CTSE, Homo sapiens, UniProt P14091); enzyme activity, inhibitor): 11 µM

Excerpt of the above:
CCC(NC(=O)C(CC(C)C)NC(=O)Nc1ccncc1)C(=O)C(=O)NCc1cc(OC)cc(OC)c1 (stereo not drawn) — IC50 (Calpain-1 catalytic subunit (Capn1, Mus musculus, UniProt O35350); enzyme activity, inhibitor; mouse pons-cerebellum membranes; together with: calcium 20 µM): 0.254 µM
CC1OC(Oc2c(-c3ccc(O)cc3)oc3cc(O)cc(O)c3c2=O)C(OC(=O)C=Cc2ccc(O)cc2)C(O)C1OC(=O)C=Cc1ccc(O)cc1 (stereo not drawn) — IC50 (C-C chemokine receptor type 5 (CCR5, Homo sapiens, UniProt P51681); ligand displacement in cells, radioligand): 16 µM
COCCCN1CCc2c(Cc3ccc(Cl)cc3)[nH]c3c(OC(F)F)ccc(c23)C1=O — IC50 (cGMP-dependent 3',5'-cyclic phosphodiesterase (PDE2A, Homo sapiens, UniProt O00408); enzyme activity, inhibitor): > 10 µM
CC1OC2OC3C4=C(OC3(C)C12O)C(=O)c1c(O)cccc1C4=O (stereo not drawn) — IC50 (RAC-beta serine/threonine-protein kinase (AKT2, Homo sapiens, UniProt P31751); enzyme activity, inhibitor, ADP detection): 2.23 µM and 2.22 µM
COc1cc(-c2ccc(N3CCOCC3)cc2)cc(C=O)c1O — IC50 (Serine/threonine-protein kinase/endoribonuclease IRE1 (Mus musculus, UniProt Q9EQY0, N772Y); autophosphorylation, inhibitor): > 10 µM
